Measured values from different studies.
A part holds a random share of what one study measured. Substitutions count along the parent as printed.

Set 1 — target: CCNB2, cyclin fold, Cln2 fusion (human); technique: yeast growth competition, sequencing; medium: yeast; setting: weak parent motif; reference: not given; reading: higher = stronger binding; quantity: normalised enrichment score
Parent: MASTL docking peptide (human); PMIAKNLMCELDE
PMIAKNLMCILDE [E10I]: 0.709
PMSAKNLMCELDE [I3S]: -0.123
PMIQKNLMCELDE [A4Q]: 0.173
PMIANNLMCELDE [K5N]: -0.135
PMIAKNPMCELDE [L7P]: -0.0244
PMGAKNLMCELDE [I3G]: 0.183
PMIAKSLMCELDE [N6S]: 0.134
PMIAKNLHCELDE [M8H]: 0.0615
PSIAKNLMCELDE [M2S]: 1.58
PMIYKNLMCELDE [A4Y]: -0.244
PGIAKNLMCELDE [M2G]: 1.1
PMIAKFLMCELDE [N6F]: -0.273
PMHAKNLMCELDE [I3H]: -0.129
PMIAKNLMCSLDE [E10S]: 0.148
PMIAKELMCELDE [N6E]: -0.479
PMIAKNLMDELDE [C9D]: 0.621
PMIAKILMCELDE [N6I]: 0.271
PQIAKNLMCELDE [M2Q]: 0.949
PMFAKNLMCELDE [I3F]: -0.16
PMIAKNLMCHLDE [E10H]: 0.101
PMIAKNLYCELDE [M8Y]: 0.388
PYIAKNLMCELDE [M2Y]: 0.55
PMIAKNLMCESDE [L11S]: -0.165
PMIAKRLMCELDE [N6R]: 0.45
PRIAKNLMCELDE [M2R]: 1.14

Set 2 — technique: protein binding microarray; molecule type: double-stranded DNA, one strand shown; medium: in vitro; concentration: not given; reference: not given; reading: higher = stronger binding; quantity: E-score
Target: Histone acetyltransferase KAT6A, winged helix 2, GST fusion (KAT6A, Homo sapiens, UniProt Q92794, residues 85-181)
Setting: 8-mer, flanks averaged, mean of 2 arrays, mostly near background
Construct (chain): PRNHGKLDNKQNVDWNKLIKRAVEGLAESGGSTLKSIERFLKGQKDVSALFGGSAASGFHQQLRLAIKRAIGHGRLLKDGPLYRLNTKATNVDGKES
CCGCCACC: 0.0991
CCCCGCGC: 0.233
AGAGGATC: -0.0413
GGCACAAA: 0.024
GACAGTGA: -0.0449
ACGTACCA: -0.0922
TTCTTCAA: 0.175
GCTGATGA: -0.0226
ATTGTAGA: -0.0124
CCCATGTC: -0.0752
CGTATCGA: -0.231
CGAGTGCC: 0.0322
GAGAAACC: -0.0587
ATTCTTCA: 0.0461
GCCAAACA: 0.00809
CACGTATG: -0.0735
CACATTTC: 0.0724
GCATTGAA: 0.137
CACGGTAG: -0.024
CTACAGAC: -0.149
GTGAACAC: -0.0886
AGCACGAT: -0.00671
ACCCTCCA: 0.0146
AATAGCAG: -0.0984
AATACATG: -0.204

Set 3 — technique: RNA Bind-n-Seq; molecule type: RNA; medium: in vitro; concentration: not given; setting: RNA with constant flanks, ends assumed; reference: input RNA pool; reading: higher = stronger binding; quantity: bound/input enrichment
Target: RING finger protein unkempt homolog, zinc fingers 1-6, GST-SBP tag (UNK, Homo sapiens, UniProt Q9C0B0, residues 30-357)
Residues (chain): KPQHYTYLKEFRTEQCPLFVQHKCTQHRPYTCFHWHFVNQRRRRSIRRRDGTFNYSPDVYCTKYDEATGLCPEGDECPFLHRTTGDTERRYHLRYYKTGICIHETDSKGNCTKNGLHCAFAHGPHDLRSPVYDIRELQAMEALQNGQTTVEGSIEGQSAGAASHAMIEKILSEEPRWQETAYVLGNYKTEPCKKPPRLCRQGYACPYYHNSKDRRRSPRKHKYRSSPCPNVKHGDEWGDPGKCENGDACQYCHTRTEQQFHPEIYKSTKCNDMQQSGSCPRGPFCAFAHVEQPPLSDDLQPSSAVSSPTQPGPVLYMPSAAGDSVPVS
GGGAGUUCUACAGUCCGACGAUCGUGACUAUAUAAAUAUCAAAACAUGUUCACUUUGUAGGACAAAAUUAUGUUGAAAAGUUCCCGCUUAAGUGUUGGCACUUUUAUGGGGGGGAAAUCAGUUUUAAAACUAAGACUUCCAUGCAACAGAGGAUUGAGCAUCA: 0.209 ratio
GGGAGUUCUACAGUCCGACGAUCAAGACUGUCGACCUAAAGCCUGACUGGGGCAAGGGCUAUUCACGAAAAGCAGCAGCUCCCGAGUUCUUAAACCGCUUUGAAGAAGCCAAGCGAACCUAUGAGGAGGGCUUAAAACACGAGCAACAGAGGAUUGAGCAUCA: 0.166 ratio
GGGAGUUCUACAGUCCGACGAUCUUCUGUUUGUGCCCAGUGAUGUCUUUCCUUGUCUUCCUUUUGACUGUAUUUUAAGAUUACUUCCGAUGAUUCUGUGCAAUGUUUAUGACCUUUCCUACCCUUCUAAUGUUCAGUUAACACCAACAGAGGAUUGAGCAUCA: 0.59 ratio
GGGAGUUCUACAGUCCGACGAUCGCCAUGGACACAGAAUUUCCAGGUGUUGUGGUGCGACCAAUUGGUGAAUUUCGUAGUUCCACCGAUUACCAAUAUCAGCUUCUGCGGUGCAAUGUUGACCUUUUAAAAAUUAUCCAGCUGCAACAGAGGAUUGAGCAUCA: 0.125 ratio
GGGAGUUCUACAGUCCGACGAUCUGGGUGAUGGAGGAAAUGAGAGAGGAAUGCUCUUGAAAGGUGGUCUGUGGAUCUGUCUGAACCGAAAGAGCACAGUAAGUAUGCAUUGCCGGAGAAAACGUCCUUGAAGCUGCUUGUCUCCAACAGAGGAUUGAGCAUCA: 0.115 ratio
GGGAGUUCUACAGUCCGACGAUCAAUCAAGUUCUAUUCCAGACUAACGGUGGGCCUGGGCUUUAUAUUUUUAUGUAAACUAUUUUCCGACUGGAGGAUUUGGUUUUCAGAGGAAAGCUUUACGCAUAAUUAAACCAUGGGAGUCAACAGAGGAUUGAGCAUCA: 0.254 ratio
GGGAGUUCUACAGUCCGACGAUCGAGAAAGGAGAGAUGCAGGUUGUCCCAGUUUUGGUGCAUCUCCUGUCUGCUAUCAGCAGUGUCCGGCUUUACAUUCCUAAAGACCUUCGGCCGGUGGACAAUAGACAGAGUGUUUUAAAACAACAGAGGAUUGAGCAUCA: 0.394 ratio
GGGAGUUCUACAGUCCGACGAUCACACAGAUAAGGACACAGGAUGAAAGACGUGUGAGUUAAGUCUCAGCUUUCUGUAGAGAGACCGACUAAAAAACAAAUUCAGGAAACCUAGAAAACAAUUAUUUCCCCUGGGCACAGACACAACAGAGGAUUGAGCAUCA: 11.3 ratio
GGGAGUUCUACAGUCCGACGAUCUAACAGUCAAUCAGCAACUGCAGGACUCACGAAAGGUACAAGUCUGUGGUAUCAUCUUGCCCGCAUCUAUGUUGUGGUGUGCCAAGCCUGAUGGGCAGUAAGCUUCCUGUGAUGUUUGUCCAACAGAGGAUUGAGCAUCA: 0.071 ratio
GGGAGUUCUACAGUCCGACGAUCGGGCGCGGCGUCCGGGUGGCGCUCGCCACUCGGGCGGUGGCGCGGGCGCCCAGGGCAGACACCCGGGUAAUCCGGAGGCGCGGCCCUGGAAUUAGACCGACAGCGGGGCUGAGGCUGAGGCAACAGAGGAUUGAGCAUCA: 0.747 ratio
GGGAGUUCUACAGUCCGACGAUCCGGUGUUGGACAUAUGAAACAUCUCUGCUGGUAGAAGAGGCCAUUAGUGAGGAACUUCCCUACCGUGAAUACUUCGAGUACUUUGCCCCAGAUUUCACACUCCAUCCAGAUGUCAGCACCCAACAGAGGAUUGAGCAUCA: 0.178 ratio

Set 4 — technique: protein-binding microarray; molecule type: double-stranded DNA, one strand shown; medium: in vitro; concentration: 250 nM; setting: 60-bp whole probe; added: salmon DNA 0.4 mg/ml; reference: random background probes; reading: higher = stronger binding; quantity: log fluorescence; shared flanks, not repeated: GCCTAGCAC … GTCTTGATTCGCTTGACGCTGCTG
Target: Interferon regulatory factor 5, full length, phosphomimetic (IRF5, Homo sapiens, UniProt Q13568-2, residues 1-514, K96S/S451D/S453D/S456D/S462D)
GACGGTCTCCTTCACCTGACGTGCTAG: 0.111 z-score
TCAGCTCTTGTTTTCACACTGTGCTAG: 0.821 z-score
GACGCTTTCCTTATCCTGACGTGCTAG: 0.88 z-score
GACGAACTCGGGTTTCGAGACGTGCTA: 1.65 z-score
GTCATACGAGCGGTAGCCAAGTGCTAG: -0.404 z-score
TTAGGACTGGACAGTGGGTTAGTGCTA: -0.129 z-score
GACGATATCAGTCTGGAGACGTGCTAG: 0.947 z-score
GACGATATCAGTATCGAGATGTGCTAG: 3.45 z-score
TCAATTTTTAGTTAGAAACTGTGCTAG: 0.81 z-score
GTAGATCTCAGTATCGATTAGTGCTAG: 6.25 z-score
GACGATTCCAGCTTCGAGACGTGCTAG: -0.186 z-score
TTAGGACTGGGTATCGATTAGTGCTAG: 2.96 z-score
TTACGTTTCGGTTTCGGTTAGTGCTAG: 12.1 z-score
TTAGGTTCCGGGTTTCGGTTAGTGCTA: 7.13 z-score
GACGGTTTCCTACTGCCGACGTGCTAG: 0.358 z-score
TTAGGTATCCTTTTCCTATAGTGCTAG: 0.636 z-score

Set 5 — technique: RNAcompete; molecule type: RNA; medium: in vitro; concentration: 20 nM; setting: 7-mer, probes averaged, single round; reference: mean of 7-mers; reading: higher = stronger binding; quantity: 7-mer Z-score
Target: PABPC1L2, full length, GST fusion (mouse, UniProt A0ABA7IW68)
Construct (chain): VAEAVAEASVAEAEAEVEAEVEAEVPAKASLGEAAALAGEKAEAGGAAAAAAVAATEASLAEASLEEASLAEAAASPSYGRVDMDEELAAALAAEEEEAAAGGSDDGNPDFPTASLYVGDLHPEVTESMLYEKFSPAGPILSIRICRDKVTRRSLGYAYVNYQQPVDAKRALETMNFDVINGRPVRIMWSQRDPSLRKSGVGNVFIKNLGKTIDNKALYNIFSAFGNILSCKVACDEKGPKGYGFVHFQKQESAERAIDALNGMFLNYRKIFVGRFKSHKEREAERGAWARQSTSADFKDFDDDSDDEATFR
CAAUCAA: 0.254
AUUGUAG: -0.184
GGAGGAG: 0.247
CAUCCUA: -0.278
UUUCUUG: -0.362
CGCUAAC: -0.248
UUUCGAC: -0.255
UAAUUAG: -0.0935
CGGGAGU: 0.00979
AAUUGUC: 0.017
AUGGGUU: -0.155
UAUGCUG: -0.17
AGUAUCC: -0.262
UAGAAAG: 1.04
CUCCACA: -0.298
AUGCAAA: 0.428
UGGACCU: -0.15
GACUCCA: -0.079
UCCAGAU: -0.177
GUACUAU: -0.229

Set 6 — technique: aptamer microarray, sandwich; molecule type: DNA with 2'F-ANA; medium: in vitro; concentration: 200 nM; added: Cy3 exosite-II aptamer, 400 nM; reading: higher = stronger binding; quantity: mean fluorescence intensity; oligonucleotide: GGTTGGTGTGGTTGG
Target: Prothrombin, mature alpha-thrombin (F2, Homo sapiens, UniProt P00734)
Setting: whole 15-mer aptamer, many near background
2'F-ANA at 1 2 3 4 5 10 13: 46.4 a.u.
2'F-ANA at 3 8 9 10 12 13: 566 a.u.
2'F-ANA at 2 4 10 11 12 14: 65.7 a.u.
2'F-ANA at 1 2 6 7 9 10 11 12 13 14: 50.3 a.u.
2'F-ANA at 3 4 5 7 8 10 11 13 15: 109 a.u.
2'F-ANA at 2 3 8 9 10 11 12 13 14: 274 a.u.
2'F-ANA at 2 3 5 6 7 10 12 13 14 15: 53.7 a.u.
2'F-ANA at 4 7 8 10 11 12 13: 87.8 a.u.
2'F-ANA at 4 5 6 7 8 9 10 11 12 14 15: 48.1 a.u.
2'F-ANA at 1 5 6 7 8 9 11 13: 90.4 a.u.
2'F-ANA at 1 3 5 9 10 12 13 15: 57.7 a.u.
2'F-ANA at 1 2 4 5 7 8 10 14: 53.1 a.u.
2'F-ANA at 2 3 4 5 6 9 12 13 15: 105 a.u.
2'F-ANA at 1 2 3 5 7 9 11 15: 53.7 a.u.
2'F-ANA at 3 4 5 6 8 12 13 15: 156 a.u.
2'F-ANA at 1 4 6 7 9 11 14: 48.6 a.u.
2'F-ANA at 1 2 6 8 12 14: 146 a.u.
2'F-ANA at 6 7 8 9 10 11 13 14: 107 a.u.
2'F-ANA at 1 2 4 5 8 9 10 11 12 13 14: 95.4 a.u.
2'F-ANA at 1 3 4 6 7 8 10 12 13 14: 53.6 a.u.
2'F-ANA at 1 2 3 4 7 10 11 12 15: 71.3 a.u.

Repeated from above (set 2):
CGAGTGCC: 0.0322
ATTCTTCA: 0.0461
CACGTATG: -0.0735
ACCCTCCA: 0.0146
CACGGTAG: -0.024
GTGAACAC: -0.0886
GAGAAACC: -0.0587
CCGCCACC: 0.0991
GCATTGAA: 0.137
CTACAGAC: -0.149
